Assay results of several laboratories.
Parts stem from different laboratories: compare values within a part only.

Block 1
Target: Interferon regulatory factor 5, full length, phosphomimetic (IRF5, Homo sapiens, UniProt Q13568-2, residues 1-514, S451D/S453D/S456D/S462D)
Method: protein-binding microarray
Form: double-stranded DNA, one strand shown
Medium: in vitro
Tested at: 940 nM top
Setting: 60-bp whole probe
Added: salmon DNA 0.4 mg/ml
Reference: random background probes
Direction: higher = stronger binding
Endpoint: fitted relative affinity
Oligonucleotide = GCCTAGCACTTAGGTATCGATCTCGGTTAGTGCTAGGTCTTGATTCGCTTGACGCTGCTG; value = 8.58 z-score
Oligonucleotide = GCCTAGCACTCAAGCCTCAGGCCTCACACTGTGCTAGTCTTGATTCGCTTGACGCTGCTG; value = -0.462 z-score
Oligonucleotide = GCCTAGCACTTTGGACTGCTTCTCCTTTAGTGCTAGGTCTTGATTCGCTTGACGCTGCTG; value = -0.115 z-score

Mixed results
UNK zinc fingers 1-6, SBP tag: RING finger protein unkempt homolog, zinc fingers 1-6, SBP tag (UNK, Homo sapiens, UniProt Q9C0B0, residues 30-357)
Chain of UniProt Q9C0B0 (30-357, looked up): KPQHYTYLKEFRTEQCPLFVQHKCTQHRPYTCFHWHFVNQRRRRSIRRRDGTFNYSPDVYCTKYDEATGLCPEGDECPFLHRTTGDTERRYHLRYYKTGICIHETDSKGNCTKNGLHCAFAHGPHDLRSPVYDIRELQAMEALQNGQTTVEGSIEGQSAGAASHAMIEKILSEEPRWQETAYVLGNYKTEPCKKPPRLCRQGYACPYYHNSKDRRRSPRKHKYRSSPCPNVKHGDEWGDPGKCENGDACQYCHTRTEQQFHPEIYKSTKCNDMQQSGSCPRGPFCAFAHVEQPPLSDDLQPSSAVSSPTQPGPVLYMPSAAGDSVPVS
Molecule = UBE2O (Homo sapiens, UniProt Q9C0C9); tested on = PSAT1 (Homo sapiens, UniProt Q9Y617); test = cross-linking MS; conditions = hits only; endpoint = interaction screen; value = cross-linked
Molecule = GGGAGUUCUACAGUCCGACGAUCAGGGAGAAGAGCUCACAAACUCAAAGGAGAACUAGGAAAGAAUUUCUAAUAGUUAAAAGCUAGGAAAGAUUAGGACAACUUUACAAAUGAGCAAUUAAAAAAAAAAAGGAUAUGGAACCUCAACAGAGGAUUGAGCAUCA; tested on = UNK zinc fingers 1-6, SBP tag; test = RNA Bind-n-Seq; system = RNA, in vitro; conditions = 100 nM, RNA with constant flanks, vertebrate orthologous sites, ends assumed; scale = reference: input RNA pool, higher = stronger binding; endpoint = bound/input enrichment; value = 0.816 ratio
Molecule = BYSL (Homo sapiens, UniProt Q13895); tested on = RRP12 (Homo sapiens, UniProt Q5JTH9); test = cross-linking MS; system = cell fractions; conditions = added: DSSO; endpoint = cross-linked residues; value = K139 to K185
Molecule = GGGAGUUCUACAGUCCGACGAUCAGGAAAUGCUGGCUGCAAACCCUCAGGAUCGUCCAGAUGCUUUUGAACUAGAACUCAGAUUAGUACAAAUUGCAUUUAAAGAUAACAGCUGGGAAACGUGACACAUAUAUUAUUUGCAAACAACAGAGGAUUGAGCAUCA; tested on = UNK zinc fingers 1-6, SBP tag; test = RNA Bind-n-Seq; system = RNA, in vitro; conditions = 100 nM, RNA with constant flanks, vertebrate orthologous sites, ends assumed; scale = reference: input RNA pool, higher = stronger binding; endpoint = bound/input enrichment; value = 1.53 ratio
Molecule = TIMM8B (Homo sapiens, UniProt Q9Y5J9); tested on = TIMM13 (Homo sapiens, UniProt Q9Y5L4); test = cross-linking MS; system = cell fractions; conditions = added: DMTMM; endpoint = cross-linked residues; value = E53 to K53
Molecule = GGGAGUUCUACAGUCCGACGAUCUACUAGCGUCAUACCAGCAUAUUAACUAGUCAUAUGUGCACAGCUUAAAAAUUAACAGUCUAGUUAUAUUUUUUAAUUUAACAACUGCUUUUUCCCAAGACUGAAAAAGAAGCUACAAUUCAACAGAGGAUUGAGCAUCA; tested on = UNK zinc fingers 1-6, SBP tag; test = RNA Bind-n-Seq; system = RNA, in vitro; conditions = 100 nM, RNA with constant flanks, vertebrate orthologous sites, ends assumed; scale = reference: input RNA pool, higher = stronger binding; endpoint = bound/input enrichment; value = 0.857 ratio
Molecule = PhoQ, residues 284 288 289 292 302 303 TTSMTC; tested on = PhoP, residues 12 14 15 18 19 NYFTV (Escherichia coli, UniProt P23836); test = Sort-seq, measured: YFP reporter; system = E. coli; conditions = PhoQ-PhoP variant library, added: 10 µM Mg2+; scale = reference: high Mg2+ state, higher = stronger signaling; endpoint = fold induction; value = 5.57

Some of these lines once more (block 1):
Oligonucleotide = GCCTAGCACTTAGGTATCGATCTCGGTTAGTGCTAGGTCTTGATTCGCTTGACGCTGCTG; value = 8.58 z-score
Oligonucleotide = GCCTAGCACTCAAGCCTCAGGCCTCACACTGTGCTAGTCTTGATTCGCTTGACGCTGCTG; value = -0.462 z-score
